Results of several laboratories.
Numbered parts are unrelated; each lists some results of a single study. Positions count from the first letter of the parent shown.
UniProt Q02763, sequence (whole entry, looked up): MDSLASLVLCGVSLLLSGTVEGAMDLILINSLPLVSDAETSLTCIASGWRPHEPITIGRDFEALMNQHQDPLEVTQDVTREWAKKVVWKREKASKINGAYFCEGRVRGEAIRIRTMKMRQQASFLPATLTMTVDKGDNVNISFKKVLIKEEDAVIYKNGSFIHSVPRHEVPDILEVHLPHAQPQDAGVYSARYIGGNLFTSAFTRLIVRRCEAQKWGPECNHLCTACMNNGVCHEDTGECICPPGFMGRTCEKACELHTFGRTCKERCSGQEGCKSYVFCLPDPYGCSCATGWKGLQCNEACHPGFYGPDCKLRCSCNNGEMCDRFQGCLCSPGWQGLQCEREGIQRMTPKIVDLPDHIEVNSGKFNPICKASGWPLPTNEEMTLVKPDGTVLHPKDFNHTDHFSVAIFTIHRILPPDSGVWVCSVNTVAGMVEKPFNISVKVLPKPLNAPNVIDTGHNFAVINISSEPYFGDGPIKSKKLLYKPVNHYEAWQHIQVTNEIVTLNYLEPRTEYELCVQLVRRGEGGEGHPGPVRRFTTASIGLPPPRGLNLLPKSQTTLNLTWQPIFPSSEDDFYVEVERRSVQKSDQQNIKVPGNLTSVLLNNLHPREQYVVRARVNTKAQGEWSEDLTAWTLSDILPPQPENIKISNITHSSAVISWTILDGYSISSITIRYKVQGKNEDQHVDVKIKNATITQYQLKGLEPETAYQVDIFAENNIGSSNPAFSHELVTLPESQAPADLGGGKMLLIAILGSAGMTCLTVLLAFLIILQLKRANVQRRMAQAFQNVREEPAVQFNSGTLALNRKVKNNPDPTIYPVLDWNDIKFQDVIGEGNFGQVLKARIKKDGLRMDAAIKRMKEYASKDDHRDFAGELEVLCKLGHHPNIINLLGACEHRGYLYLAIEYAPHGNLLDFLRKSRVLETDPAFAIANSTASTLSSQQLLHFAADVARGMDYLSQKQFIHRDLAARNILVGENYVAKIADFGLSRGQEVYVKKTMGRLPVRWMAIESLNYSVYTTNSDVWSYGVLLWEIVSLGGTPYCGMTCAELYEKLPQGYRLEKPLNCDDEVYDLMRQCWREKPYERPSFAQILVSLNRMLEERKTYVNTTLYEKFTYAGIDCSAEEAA
UniProt P22607, sequence (whole entry, looked up): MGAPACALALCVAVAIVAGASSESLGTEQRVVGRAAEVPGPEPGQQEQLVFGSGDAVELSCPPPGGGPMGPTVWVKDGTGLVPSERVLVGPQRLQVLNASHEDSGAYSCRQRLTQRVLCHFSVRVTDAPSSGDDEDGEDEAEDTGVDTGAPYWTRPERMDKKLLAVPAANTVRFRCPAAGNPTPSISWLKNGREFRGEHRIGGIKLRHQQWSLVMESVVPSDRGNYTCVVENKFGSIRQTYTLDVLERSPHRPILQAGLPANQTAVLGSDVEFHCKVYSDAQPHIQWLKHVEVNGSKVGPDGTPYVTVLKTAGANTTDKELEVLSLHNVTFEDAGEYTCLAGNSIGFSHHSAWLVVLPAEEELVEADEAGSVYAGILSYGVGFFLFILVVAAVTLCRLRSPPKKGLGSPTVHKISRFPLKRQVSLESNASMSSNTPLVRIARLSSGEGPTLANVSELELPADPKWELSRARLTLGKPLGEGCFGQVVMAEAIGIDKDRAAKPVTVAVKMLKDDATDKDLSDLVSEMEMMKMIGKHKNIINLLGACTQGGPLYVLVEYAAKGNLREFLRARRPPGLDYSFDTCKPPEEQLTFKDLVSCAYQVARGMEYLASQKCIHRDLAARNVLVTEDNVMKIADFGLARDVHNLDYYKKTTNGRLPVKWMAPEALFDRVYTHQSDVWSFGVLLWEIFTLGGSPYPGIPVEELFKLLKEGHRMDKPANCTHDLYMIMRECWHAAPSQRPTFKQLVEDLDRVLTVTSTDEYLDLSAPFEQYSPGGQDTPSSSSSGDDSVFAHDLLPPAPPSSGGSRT
UniProt Q9HC98, sequence (whole entry, looked up): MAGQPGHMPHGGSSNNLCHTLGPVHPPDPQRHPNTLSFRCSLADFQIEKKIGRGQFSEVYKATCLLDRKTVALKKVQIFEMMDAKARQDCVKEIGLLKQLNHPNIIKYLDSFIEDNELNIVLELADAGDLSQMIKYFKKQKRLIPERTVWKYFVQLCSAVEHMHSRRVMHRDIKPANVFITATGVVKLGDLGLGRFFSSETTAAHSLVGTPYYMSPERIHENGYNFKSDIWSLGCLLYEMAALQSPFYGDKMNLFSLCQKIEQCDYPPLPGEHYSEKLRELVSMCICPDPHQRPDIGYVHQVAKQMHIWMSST
UniProt P27361, sequence (whole entry, looked up): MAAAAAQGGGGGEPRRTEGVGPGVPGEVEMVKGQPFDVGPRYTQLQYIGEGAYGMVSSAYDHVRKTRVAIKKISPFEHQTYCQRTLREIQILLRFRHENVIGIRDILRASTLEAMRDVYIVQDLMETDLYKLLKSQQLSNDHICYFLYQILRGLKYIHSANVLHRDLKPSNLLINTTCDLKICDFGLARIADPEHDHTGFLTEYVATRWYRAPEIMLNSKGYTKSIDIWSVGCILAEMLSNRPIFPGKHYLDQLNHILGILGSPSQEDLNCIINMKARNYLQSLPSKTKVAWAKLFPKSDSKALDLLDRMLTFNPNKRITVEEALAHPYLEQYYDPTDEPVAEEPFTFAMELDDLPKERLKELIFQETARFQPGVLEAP
UniProt Q9UBF8, sequence (whole entry, looked up): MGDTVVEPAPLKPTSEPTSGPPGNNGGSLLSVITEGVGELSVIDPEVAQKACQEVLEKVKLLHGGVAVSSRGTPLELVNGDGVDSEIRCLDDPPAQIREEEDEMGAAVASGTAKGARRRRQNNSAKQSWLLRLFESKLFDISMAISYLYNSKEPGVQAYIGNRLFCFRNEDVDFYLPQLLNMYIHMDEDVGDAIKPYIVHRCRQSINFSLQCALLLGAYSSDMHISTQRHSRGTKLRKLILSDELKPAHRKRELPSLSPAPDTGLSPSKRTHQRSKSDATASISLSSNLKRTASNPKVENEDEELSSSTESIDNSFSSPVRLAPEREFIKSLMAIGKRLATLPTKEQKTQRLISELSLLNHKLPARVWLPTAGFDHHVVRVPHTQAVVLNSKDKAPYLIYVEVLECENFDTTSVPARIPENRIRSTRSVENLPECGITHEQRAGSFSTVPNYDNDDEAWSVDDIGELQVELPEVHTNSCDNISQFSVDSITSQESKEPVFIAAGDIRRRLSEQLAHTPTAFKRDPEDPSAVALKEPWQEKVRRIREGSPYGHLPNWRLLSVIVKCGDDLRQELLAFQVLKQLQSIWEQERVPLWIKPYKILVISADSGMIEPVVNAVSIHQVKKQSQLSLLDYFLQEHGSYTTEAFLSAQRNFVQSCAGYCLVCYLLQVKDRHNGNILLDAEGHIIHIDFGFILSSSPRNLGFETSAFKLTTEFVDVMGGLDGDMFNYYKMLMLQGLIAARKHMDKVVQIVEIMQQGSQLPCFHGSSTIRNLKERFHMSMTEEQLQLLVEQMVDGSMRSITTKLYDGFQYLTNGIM
UniProt P11802, sequence (whole entry, looked up): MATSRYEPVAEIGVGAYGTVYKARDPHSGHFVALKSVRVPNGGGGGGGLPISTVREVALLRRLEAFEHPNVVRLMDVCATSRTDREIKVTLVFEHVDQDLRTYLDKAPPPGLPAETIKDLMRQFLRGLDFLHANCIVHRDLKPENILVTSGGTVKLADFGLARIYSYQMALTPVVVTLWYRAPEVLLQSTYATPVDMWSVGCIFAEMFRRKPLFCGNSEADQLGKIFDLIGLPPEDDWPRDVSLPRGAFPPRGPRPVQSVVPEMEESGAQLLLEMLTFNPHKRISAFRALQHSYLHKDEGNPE
UniProt P49841, sequence (whole entry, looked up): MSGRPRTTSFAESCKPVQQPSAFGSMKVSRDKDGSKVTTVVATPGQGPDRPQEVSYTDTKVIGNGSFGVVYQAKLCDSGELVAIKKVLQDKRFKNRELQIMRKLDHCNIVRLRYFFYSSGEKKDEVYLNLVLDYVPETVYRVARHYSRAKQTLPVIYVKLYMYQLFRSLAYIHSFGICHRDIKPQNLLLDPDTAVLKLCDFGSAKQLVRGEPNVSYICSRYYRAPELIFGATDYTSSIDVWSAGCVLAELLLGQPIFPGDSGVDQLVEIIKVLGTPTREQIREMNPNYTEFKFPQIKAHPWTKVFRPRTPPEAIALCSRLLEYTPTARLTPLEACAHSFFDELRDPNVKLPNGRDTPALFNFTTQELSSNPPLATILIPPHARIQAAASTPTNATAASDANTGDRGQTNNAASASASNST
UniProt P30291, sequence (whole entry, looked up): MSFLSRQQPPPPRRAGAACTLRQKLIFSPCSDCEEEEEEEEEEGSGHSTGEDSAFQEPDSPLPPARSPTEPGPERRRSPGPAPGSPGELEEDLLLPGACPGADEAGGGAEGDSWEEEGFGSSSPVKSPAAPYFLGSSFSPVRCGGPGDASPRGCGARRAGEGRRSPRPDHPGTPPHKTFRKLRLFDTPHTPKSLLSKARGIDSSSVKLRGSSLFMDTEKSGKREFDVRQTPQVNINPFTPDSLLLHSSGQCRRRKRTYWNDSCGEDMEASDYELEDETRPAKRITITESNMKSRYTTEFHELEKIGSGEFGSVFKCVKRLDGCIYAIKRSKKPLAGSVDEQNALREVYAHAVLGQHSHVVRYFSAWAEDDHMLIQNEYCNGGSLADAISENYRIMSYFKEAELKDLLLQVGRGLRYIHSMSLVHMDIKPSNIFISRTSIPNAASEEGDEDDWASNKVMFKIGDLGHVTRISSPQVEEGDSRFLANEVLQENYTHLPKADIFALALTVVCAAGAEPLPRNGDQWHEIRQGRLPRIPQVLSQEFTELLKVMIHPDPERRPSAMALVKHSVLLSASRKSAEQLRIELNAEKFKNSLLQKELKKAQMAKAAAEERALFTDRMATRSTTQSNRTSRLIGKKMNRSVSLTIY

Block 1
Target: Histone acetyltransferase KAT6A, both winged helices, GST fusion (KAT6A, Homo sapiens, UniProt Q92794, residues 1-181)
Technique: protein binding microarray
Molecule type: double-stranded DNA, one strand shown
Medium: in vitro
Tested at: not given
Notes: 8-mer, flanks averaged, mean of 2 arrays, mostly near background
Relative to: not given
Reading: higher = stronger binding
Construct (chain): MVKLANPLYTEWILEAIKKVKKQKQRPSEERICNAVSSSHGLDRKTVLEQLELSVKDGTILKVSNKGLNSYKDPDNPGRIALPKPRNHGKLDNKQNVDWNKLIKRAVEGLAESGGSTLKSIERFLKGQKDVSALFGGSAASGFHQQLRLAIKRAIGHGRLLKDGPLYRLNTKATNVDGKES
`CCATGCAC` gave an E-score of -0.144.
`GATAAATA` gave an E-score of -0.00392.
`AAGATCGA` gave an E-score of 0.0386.
`GATGTGCA` gave an E-score of -0.186.
For `AGTCCGGG`, the E-score was 0.1.
For `CCACGCAG`, the E-score was 0.0271.
With `CCCGACTC` the E-score was 0.0439.
With `GGGTCGTA` the E-score was 0.0407.

Block 2
Target: ABI1, truncated, D143A, DHFR fusion (Arabidopsis thaliana)
Technique: DHFR PCA, deep sequencing
Medium: yeast
Notes: methotrexate growth selection, single substitutions
Together with: (+)-ABA 17 µM
Relative to: wild-type fitted maximum
Reading: higher = stronger binding
Starting sequence: PYL1, truncated, DHFR fusion (Arabidopsis thaliana); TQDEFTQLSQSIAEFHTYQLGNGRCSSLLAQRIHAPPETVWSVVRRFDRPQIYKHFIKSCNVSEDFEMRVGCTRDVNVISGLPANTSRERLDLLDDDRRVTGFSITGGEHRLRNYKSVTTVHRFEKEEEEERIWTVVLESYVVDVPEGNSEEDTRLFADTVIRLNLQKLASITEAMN; partner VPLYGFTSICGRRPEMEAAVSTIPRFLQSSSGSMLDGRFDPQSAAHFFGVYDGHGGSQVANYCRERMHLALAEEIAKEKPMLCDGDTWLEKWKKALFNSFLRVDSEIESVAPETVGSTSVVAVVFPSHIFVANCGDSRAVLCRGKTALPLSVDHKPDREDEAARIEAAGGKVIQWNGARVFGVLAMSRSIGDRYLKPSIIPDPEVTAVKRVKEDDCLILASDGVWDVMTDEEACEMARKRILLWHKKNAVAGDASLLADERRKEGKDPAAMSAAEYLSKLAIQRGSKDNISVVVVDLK
`V78F` — result for “relative binding score”: 73.8%.
Under “relative binding score”, `A35P` is recorded as -13.6%.
`D65I` — result for “relative binding score”: 49.4%.
Under “relative binding score”, `P37Y` is recorded as 23%.
`C25A` — result for “relative binding score”: 82.1%.
`T119R` — result for “relative binding score”: 0.0198%.
`D96P` — result for “relative binding score”: 21.1%.
`G107H`: “relative binding score” 44%.

Block 3
SMILES: COc1ccc2c(O[C@@H]3C[C@H]4C(=O)N[C@]5(C(=O)O)CC5/C=C\CCCCC[C@H](NC(=O)OC5CCCC5)C(=O)N4C3)cc(-c3csc(NC(=O)C(C)C)n3)nc2c1C (stereo partly drawn)
Tested at: 1 µM
PI4KB (Homo sapiens, UniProt Q9UBF8); cell-free assay, competition with immobilised ligand — remaining binding: 71%.
Tyrosine-protein kinase JAK1, JH2 (JAK1, Homo sapiens, UniProt P23458); cell-free assay, competition with immobilised ligand — remaining binding: 75%.
The remaining binding was 98% (IGF1R (Homo sapiens, UniProt P08069); cell-free assay, competition with immobilised ligand).
The remaining binding was 80% (ABL1 (Homo sapiens, UniProt P00519, E255K); KINOMEscan; E255K mutant, phosphorylated; relative to: control).
For EGFR (Homo sapiens, UniProt P00533, G719C); cell-free assay, competition with immobilised ligand: remaining binding read 76%.
CDK4 (Homo sapiens, UniProt P11802); cell-free assay, competition with immobilised ligand — remaining binding: 100%.
It gave 79% for remaining binding (ANKK1 (Homo sapiens, UniProt Q8NFD2); cell-free assay, competition with immobilised ligand).
It gave 92% for remaining binding (Tyrosine-protein kinase ABL1, non-phosphorylated (ABL1, Homo sapiens, UniProt P00519, T315I); cell-free assay, competition with immobilised ligand).
TEK (Homo sapiens, UniProt Q02763); cell-free assay, competition with immobilised ligand — remaining binding: 100%.
The remaining binding was 99% (CDK11B (Homo sapiens, UniProt P21127); cell-free assay, competition with immobilised ligand).

Block 4
Structure (SMILES): COc1ccc2c(c1)c(C1=C(c3c[nH]c4ccccc34)C(=O)NC1=O)cn2CCCN(C)C
Observed: enzyme activity
Action: inhibitor
Tested at: 0.5 µM
Relative to: control
It gave 32% for remaining activity (GSK3B (Homo sapiens, UniProt P49841)).
NEK6 (Homo sapiens, UniProt Q9HC98) — remaining activity: 101%.
It gave 5.46% for remaining activity (RPS6KA2 (Homo sapiens, UniProt Q15349)).
It gave 95.1% for remaining activity (MAP3K5 (Homo sapiens, UniProt Q99683)).
For CSNK1G2 (Homo sapiens, UniProt P78368): remaining activity read 82.2%.
It gave 93% for remaining activity (MAPK3 (Homo sapiens, UniProt P27361)).
ULK2 (Homo sapiens, UniProt Q8IYT8) — remaining activity: 96.1%.
It gave 87.5% for remaining activity (FGFR3 (Homo sapiens, UniProt P22607)).
For TBK1 (Homo sapiens, UniProt Q9UHD2): remaining activity read 90.7%.
ABL2 (Homo sapiens, UniProt P42684) — remaining activity: 77.7%.
GRK7 (Homo sapiens, UniProt Q8WTQ7) — remaining activity: 106%.
LCK (Homo sapiens, UniProt P06239) — remaining activity: 93.6%.
The remaining activity was 85.1% (WEE1 (Homo sapiens, UniProt P30291)).
